Measurements collected from several papers.
Numbered parts are unrelated; each lists some results of a single study.
Chain of UniProt Q9BYP7 (whole entry, looked up): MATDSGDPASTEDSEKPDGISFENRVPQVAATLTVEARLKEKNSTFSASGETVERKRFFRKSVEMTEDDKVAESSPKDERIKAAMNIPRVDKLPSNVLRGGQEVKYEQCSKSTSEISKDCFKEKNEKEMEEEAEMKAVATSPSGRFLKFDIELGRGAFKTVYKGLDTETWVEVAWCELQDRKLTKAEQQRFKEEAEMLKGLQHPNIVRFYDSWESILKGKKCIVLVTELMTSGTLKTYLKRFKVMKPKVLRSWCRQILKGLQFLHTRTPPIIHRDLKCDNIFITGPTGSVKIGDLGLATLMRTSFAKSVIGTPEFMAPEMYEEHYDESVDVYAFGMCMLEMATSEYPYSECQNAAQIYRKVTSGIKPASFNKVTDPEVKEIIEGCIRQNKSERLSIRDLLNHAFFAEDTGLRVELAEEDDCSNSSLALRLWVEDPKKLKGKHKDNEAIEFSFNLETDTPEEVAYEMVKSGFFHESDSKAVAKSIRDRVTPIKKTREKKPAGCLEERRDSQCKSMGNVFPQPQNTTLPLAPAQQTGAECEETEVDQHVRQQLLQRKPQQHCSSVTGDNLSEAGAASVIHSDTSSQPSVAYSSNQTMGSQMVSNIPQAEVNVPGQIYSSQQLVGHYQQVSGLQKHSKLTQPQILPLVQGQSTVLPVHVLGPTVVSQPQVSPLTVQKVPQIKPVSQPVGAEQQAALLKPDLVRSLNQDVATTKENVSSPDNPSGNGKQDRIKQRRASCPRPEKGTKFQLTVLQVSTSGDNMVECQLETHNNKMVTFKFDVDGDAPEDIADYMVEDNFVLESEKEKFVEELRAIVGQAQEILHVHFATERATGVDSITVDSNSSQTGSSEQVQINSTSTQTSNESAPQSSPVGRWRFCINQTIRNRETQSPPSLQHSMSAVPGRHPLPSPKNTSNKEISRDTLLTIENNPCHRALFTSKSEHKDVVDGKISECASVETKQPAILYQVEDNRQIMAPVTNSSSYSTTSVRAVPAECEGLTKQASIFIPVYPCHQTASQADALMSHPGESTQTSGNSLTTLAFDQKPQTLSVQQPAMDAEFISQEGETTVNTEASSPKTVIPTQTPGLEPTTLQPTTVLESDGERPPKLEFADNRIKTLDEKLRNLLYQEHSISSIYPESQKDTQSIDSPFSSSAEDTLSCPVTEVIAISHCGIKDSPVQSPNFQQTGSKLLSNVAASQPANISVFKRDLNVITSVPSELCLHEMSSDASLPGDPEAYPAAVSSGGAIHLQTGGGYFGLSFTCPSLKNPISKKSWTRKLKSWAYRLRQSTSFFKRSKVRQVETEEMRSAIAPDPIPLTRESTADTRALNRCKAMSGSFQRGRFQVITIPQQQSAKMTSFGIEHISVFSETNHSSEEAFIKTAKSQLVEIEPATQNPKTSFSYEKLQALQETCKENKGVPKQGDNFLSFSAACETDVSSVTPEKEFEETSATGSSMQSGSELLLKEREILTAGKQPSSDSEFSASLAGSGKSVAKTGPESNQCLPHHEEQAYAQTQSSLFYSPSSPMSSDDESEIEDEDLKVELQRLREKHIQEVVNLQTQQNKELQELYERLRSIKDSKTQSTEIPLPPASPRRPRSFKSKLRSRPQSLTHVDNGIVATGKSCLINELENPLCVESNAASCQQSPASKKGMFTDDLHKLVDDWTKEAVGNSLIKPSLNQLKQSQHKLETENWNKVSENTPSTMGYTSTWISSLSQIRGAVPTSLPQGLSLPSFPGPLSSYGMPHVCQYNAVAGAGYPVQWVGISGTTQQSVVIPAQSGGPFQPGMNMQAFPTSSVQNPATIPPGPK
Chain of UniProt O95819 (whole entry, looked up): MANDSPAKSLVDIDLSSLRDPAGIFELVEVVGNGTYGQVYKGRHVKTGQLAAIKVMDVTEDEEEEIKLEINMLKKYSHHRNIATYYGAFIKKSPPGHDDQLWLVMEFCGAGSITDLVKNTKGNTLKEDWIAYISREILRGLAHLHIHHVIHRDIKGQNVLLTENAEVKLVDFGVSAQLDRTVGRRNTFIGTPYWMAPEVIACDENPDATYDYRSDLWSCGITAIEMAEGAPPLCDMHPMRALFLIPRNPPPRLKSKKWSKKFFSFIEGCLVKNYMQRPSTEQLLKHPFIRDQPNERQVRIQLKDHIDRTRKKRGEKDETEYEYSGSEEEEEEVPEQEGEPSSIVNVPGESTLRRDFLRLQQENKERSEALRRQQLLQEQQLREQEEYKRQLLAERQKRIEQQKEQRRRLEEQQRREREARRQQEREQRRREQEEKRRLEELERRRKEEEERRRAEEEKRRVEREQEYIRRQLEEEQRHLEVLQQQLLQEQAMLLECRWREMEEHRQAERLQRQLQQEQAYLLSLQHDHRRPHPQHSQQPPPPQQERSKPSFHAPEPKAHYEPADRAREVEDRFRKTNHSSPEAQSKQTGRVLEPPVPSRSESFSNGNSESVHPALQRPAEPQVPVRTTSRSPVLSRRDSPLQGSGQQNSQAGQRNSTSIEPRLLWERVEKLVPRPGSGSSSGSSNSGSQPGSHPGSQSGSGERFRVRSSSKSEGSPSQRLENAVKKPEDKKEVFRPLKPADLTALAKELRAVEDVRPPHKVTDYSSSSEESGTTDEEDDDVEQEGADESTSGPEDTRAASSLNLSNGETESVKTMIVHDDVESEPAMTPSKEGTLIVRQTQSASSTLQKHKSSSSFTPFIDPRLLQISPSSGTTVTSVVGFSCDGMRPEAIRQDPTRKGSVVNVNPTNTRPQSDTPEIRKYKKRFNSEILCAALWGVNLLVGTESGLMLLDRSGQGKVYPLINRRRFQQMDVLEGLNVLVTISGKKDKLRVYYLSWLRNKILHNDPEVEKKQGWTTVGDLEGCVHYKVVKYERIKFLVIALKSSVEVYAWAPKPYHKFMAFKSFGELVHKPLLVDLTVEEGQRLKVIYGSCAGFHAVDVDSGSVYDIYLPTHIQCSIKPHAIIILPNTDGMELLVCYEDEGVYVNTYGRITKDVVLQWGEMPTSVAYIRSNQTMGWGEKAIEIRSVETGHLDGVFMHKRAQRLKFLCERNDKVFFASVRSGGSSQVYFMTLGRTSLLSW
Chain of UniProt Q9UEE5 (whole entry, looked up): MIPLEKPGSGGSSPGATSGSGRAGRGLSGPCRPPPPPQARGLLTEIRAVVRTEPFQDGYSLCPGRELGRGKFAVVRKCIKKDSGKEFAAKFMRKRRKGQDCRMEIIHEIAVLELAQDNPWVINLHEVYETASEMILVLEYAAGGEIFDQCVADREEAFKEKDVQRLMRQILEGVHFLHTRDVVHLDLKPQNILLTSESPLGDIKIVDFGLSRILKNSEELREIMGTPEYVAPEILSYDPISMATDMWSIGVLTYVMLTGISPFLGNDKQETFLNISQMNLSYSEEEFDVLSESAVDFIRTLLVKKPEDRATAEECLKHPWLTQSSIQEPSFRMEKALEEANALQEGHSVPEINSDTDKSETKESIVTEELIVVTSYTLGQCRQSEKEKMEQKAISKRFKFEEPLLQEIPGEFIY
Chain of UniProt P54762 (whole entry, looked up): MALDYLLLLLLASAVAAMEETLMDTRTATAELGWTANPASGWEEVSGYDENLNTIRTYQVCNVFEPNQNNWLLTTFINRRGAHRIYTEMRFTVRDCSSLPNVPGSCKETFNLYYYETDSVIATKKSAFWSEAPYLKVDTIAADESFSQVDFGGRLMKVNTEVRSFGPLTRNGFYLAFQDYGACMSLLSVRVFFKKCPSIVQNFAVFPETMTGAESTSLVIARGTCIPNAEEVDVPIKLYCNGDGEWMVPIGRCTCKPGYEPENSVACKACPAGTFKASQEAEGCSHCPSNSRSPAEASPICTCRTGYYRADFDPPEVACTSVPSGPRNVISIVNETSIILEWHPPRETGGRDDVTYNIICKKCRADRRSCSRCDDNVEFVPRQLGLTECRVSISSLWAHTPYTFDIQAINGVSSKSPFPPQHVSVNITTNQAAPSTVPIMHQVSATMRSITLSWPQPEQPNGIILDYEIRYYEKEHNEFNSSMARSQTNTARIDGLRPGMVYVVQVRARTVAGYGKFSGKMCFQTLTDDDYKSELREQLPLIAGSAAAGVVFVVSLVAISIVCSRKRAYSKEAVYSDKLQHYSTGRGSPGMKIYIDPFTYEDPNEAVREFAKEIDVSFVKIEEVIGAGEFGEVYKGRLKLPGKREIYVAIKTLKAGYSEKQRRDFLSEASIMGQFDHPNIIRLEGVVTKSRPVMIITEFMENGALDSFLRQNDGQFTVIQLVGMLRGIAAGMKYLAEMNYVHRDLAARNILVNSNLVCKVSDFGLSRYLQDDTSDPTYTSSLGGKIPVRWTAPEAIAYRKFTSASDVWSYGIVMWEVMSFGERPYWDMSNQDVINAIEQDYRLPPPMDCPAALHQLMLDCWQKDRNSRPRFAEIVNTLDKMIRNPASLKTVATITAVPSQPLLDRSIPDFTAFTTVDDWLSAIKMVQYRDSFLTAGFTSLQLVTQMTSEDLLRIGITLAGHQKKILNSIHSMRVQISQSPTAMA
Chain of UniProt P11802 (whole entry, looked up): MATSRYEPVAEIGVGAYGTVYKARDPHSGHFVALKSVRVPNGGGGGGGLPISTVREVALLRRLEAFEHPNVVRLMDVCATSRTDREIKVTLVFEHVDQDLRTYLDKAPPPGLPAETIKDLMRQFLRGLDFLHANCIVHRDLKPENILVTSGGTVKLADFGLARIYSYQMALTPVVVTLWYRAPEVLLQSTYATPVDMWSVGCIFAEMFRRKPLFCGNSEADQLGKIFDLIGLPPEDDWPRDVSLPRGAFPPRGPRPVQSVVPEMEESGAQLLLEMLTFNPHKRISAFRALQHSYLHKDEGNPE

Block 1
SMILES: CCn1cnc2c(Nc3cccc(Cl)c3)nc(N[C@H]3CCCC[C@H]3N)nc21
Observed: enzyme activity
Action: inhibitor
Concentration: 0.5 µM
Baseline: control
The remaining activity was 56.6% (Ephrin type-B receptor 1 (EPHB1, Homo sapiens, UniProt P54762)).
Serine/threonine-protein kinase WNK3 (WNK3, Homo sapiens, UniProt Q9BYP7) — remaining activity: 92%.
Tyrosine-protein kinase Srms (SRMS, Homo sapiens, UniProt Q9H3Y6) — remaining activity: 85.9%.
Ribosomal protein S6 kinase alpha-6 (RPS6KA6, Homo sapiens, UniProt Q9UK32) — remaining activity: 75.7%.
The remaining activity was 87.1% (Tyrosine-protein kinase Blk (BLK, Homo sapiens, UniProt P51451)).
For Serine/threonine-protein kinase 17A (STK17A, Homo sapiens, UniProt Q9UEE5): remaining activity read 98.4%.
The remaining activity was 101% (Serine/threonine-protein kinase 16 (STK16, Homo sapiens, UniProt O75716)).
Mitogen-activated protein kinase kinase kinase kinase 4 (MAP4K4, Homo sapiens, UniProt O95819) — remaining activity: 72.5%.
The remaining activity was 71.5% (Cyclin-dependent kinase 4, with cyclin D3 (CDK4, Homo sapiens, UniProt P11802)).
Homeodomain-interacting protein kinase 4 (HIPK4, Homo sapiens, UniProt Q8NE63) — remaining activity: 88.4%.
The remaining activity was 62.8% (Phosphorylase b kinase gamma catalytic chain, skeletal muscle/heart isoform (PHKG1, Homo sapiens, UniProt Q16816)).
It gave 76.9% for remaining activity (Cyclin-dependent kinase 6, with cyclin D3 (CDK6, Homo sapiens, UniProt Q00534)).

Block 2
Cell line: HEK-293T/ACE2
Method: Hoechst nuclei count
Concentration: concentration not given
Time: 16 (unit not given)
Baseline: vehicle
For Nc1nc(F)nc2c1ncn2[C@@H]1O[C@H](CO)[C@@H](O)[C@@H]1O, the viability was 99.4%.
The viability of C[C@]12CC[C@H]3[C@@H](CCC4=CC(=O)CC[C@@H]43)[C@@H]1CC[C@@H]2O is reported as 106%.
For O=C(O[C@H]1C[N+]2(CCCOc3ccccc3)CCC1CC2)C(O)(c1cccs1)c1cccs1, the viability was 105%.
With C[C@H](Cc1cc2c(c(C(N)=O)c1)N(CCCO)CC2)NCCOc1ccccc1OCC(F)(F)F the viability was 96.8%.
For CC(=O)c1c(C)c2cnc(Nc3ccc(N4CCNCC4)cn3)nc2n(C2CCCC2)c1=O, the viability was 98.6%.
CC[C@@H]([C@H](C)O)n1ncn(-c2ccc(N3CCN(c4ccc(OC[C@@H]5CO[C@@](Cn6cncn6)(c6ccc(F)cc6F)C5)cc4)CC3)cc2)c1=O gave a viability of 96%.
With CS(=O)(=O)CCNCc1ccc(-c2ccc3ncnc(Nc4ccc(OCc5cccc(F)c5)c(Cl)c4)c3c2)o1 the viability was 84.4%.
CC(=O)O[C@H]1C(=O)[C@@]2(C)[C@H]([C@H](OC(=O)c3ccccc3)[C@]3(O)C[C@H](OC(=O)[C@H](O)[C@@H](NC(=O)c4ccccc4)c4ccccc4)C(C)=C1C3(C)C)[C@]1(OC(C)=O)CO[C@@H]1C[C@@H]2O gave a viability of 80.8%.

Block 3
Target: Cyclin-dependent kinase 2 homolog (CRK2, Plasmodium falciparum, UniProt P61075)
Chain of UniProt P61075 (whole entry, looked up): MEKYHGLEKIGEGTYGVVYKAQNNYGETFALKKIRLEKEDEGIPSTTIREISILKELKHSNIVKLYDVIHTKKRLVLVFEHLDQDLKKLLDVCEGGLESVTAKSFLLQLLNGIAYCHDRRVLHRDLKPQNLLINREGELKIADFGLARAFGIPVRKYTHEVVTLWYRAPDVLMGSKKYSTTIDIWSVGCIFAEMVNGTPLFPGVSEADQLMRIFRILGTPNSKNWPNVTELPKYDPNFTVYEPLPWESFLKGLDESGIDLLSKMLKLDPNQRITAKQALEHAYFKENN
Observed: cell-free assay
Method: competition with immobilised ligand
Concentration: 1 µM
NS(=O)(=O)c1cc(NC(=O)C2(c3ccccc3Cl)CC2)ccc1Oc1cccc(Cl)c1 has a remaining binding of 93%.
The remaining binding of O=C(N1CCS(=O)(=O)CC1)N1C[C@H](c2ccc(OC(F)(F)F)cc2)C[C@H](c2nc(C3CC3)no2)C1 is reported as 100%.
With O=C(Nc1cnc(Oc2ccc(F)cc2)nc1)N1CCc2ncccc2[C@@H]1c1ccc(F)cc1 the remaining binding was 100%.
CO[C@@H](C)c1c(Nc2ccc([C@H](N(C)C(=O)C3CCS(=O)(=O)CC3)C(F)(F)F)cc2)cnc2cc(Cl)nn12 gave a remaining binding of 100%.

Other studies, line by line
Cc1ncsc1-c1ccc(CNC(=O)[C@@H]2C[C@@H](O)CN2C(=O)[C@@H](NC(=O)CCCCCNC(=O)Cc2ccccc2)C(C)(C)C)cc1 — result for “average log k' (20-100)”: 1.04 (PRP-column chromatography).

Repeated from above (block 2):
CC(=O)O[C@H]1C(=O)[C@@]2(C)[C@H]([C@H](OC(=O)c3ccccc3)[C@]3(O)C[C@H](OC(=O)[C@H](O)[C@@H](NC(=O)c4ccccc4)c4ccccc4)C(C)=C1C3(C)C)[C@]1(OC(C)=O)CO[C@@H]1C[C@@H]2O gave a viability of 80.8%.
For CC(=O)c1c(C)c2cnc(Nc3ccc(N4CCNCC4)cn3)nc2n(C2CCCC2)c1=O, the viability was 98.6%.
The viability of C[C@]12CC[C@H]3[C@@H](CCC4=CC(=O)CC[C@@H]43)[C@@H]1CC[C@@H]2O is reported as 106%.
